Measurements from different studies.
Each line is one published result; not all experiments were run side by side.

SMILES	tested on	assay	system	conditions	how to read	endpoint	result
CCN(CC)CC(=O)Nc1cccc(-n2cc(-c3ccc4ccc(-c5cn(-c6cccc(NC(=O)CN(CC)CC)c6)nn5)cc4c3)nn2)c1	RCC4	PCR angiogenesis array, refers to: IGF1		5 x IC50, 2 h, normoxia	reference: untreated	fold regulation	2.18
C=CC(=O)N1[C@H](c2ccc3c(c2)OCO3)c2[nH]c3ccccc3c2C[C@@H]1C(=O)N1CCN(C)CC1	human cyclin E1 N112C-3xFLAG:CDK2	co-IP with TMT proteomics, refers to: SNRPD3		concentration not given, P62318	reference: wild type DMSO	relative co-enrichment	129%
C=CC(=O)Nc1cccc(Cn2ncc3cnc(Nc4cnn(CCOC)c4)nc32)c1	ALK human	binding, KINOMEscan		100 nM	lower = stronger binding	percent of control	80%
C=C(NC(=O)c1csc(-c2nc3c(cc2O)-c2nc(cs2)C(=O)NC(C(C)O)C(=O)NC(=C(C)OC)c2nc(cs2)C(=O)NC2c4nc(cs4)C(=O)NC(COC(=O)c4c5c6c(cccc6n4O)COC(=O)C(OC4CC(C)(O)C(N(C)C)C(C)O4)C2OC5)c2nc-3cs2)n1)C(N)=O (stereo not drawn)			ICR mice, Streptococcus pneumoniae ATCC 49169 infected, immunocompromised, blood	intravenous, 8 mg/kg/day three times daily		AUC(0-inf)	882 ng·h/mL
Nc1ncc(-c2cc(-c3cnn(CC(F)(F)F)c3)ncc2F)nc1C(=O)NC1CNCC(F)C1 (stereo not drawn)	SGK2	KINOMEscan		1 µM	reference: DMSO control	remaining binding	100%
CNS(=O)(=O)Nc1nccc(Cc2c(C)c3ccc(Oc4ncccc4F)cc3oc2=O)c1F	A-427	cell viability		7 days		IC50	> 1000 nM
Cc1ncsc1-c1ccc(C(C)NC(=O)C2CC(O)CN2C(=O)C(NC(=O)CCCCCCCCCCN2CCCC(Nc3ncc(Cl)c(Nc4ccccc4S(=O)(=O)C(C)C)n3)C2)C(C)(C)C)cc1 (stereo not drawn)	22Rv1	RNA-seq, refers to: ZNF440 mRNA		concentration not given	reference: DMSO	log2 fold change	-1.59
c1ccc(-c2n[nH]cc2-c2ccnc3ccccc23)nc1	VPS15 (Candida albicans)	kinase binding, MIB/MS competition	Candida albicans lysate	10 µM	reference: DMSO	log2 fold change	-0.48
COC1CN([C@H]2CC[C@H]([C@@]3(C)Oc4c(Cl)cc(C(=O)NCc5c(SC)cc(C)[nH]c5=O)c(C)c4O3)CC2)C1		RNA-seq, refers to: PHLDA3 mouse homolog	mouse, HT-1376 xenograft, whole blood	dose not given	reference: vehicle	log2 fold change	1.28

For quick reference, copied from above:
SMILES	tested on	assay	system	conditions	how to read	endpoint	result
COC1CN([C@H]2CC[C@H]([C@@]3(C)Oc4c(Cl)cc(C(=O)NCc5c(SC)cc(C)[nH]c5=O)c(C)c4O3)CC2)C1		RNA-seq, refers to: PHLDA3 mouse homolog	mouse, HT-1376 xenograft, whole blood	dose not given	reference: vehicle	log2 fold change	1.28
